Experimental data from different studies.
Numbers after ± are the reported error.
ADCYAP1R1: Pituitary adenylate cyclase-activating polypeptide type I receptor (ADCYAP1R1, Homo sapiens, UniProt P41586)
Sequence of UniProt P41586 (whole entry, unmodified, looked up): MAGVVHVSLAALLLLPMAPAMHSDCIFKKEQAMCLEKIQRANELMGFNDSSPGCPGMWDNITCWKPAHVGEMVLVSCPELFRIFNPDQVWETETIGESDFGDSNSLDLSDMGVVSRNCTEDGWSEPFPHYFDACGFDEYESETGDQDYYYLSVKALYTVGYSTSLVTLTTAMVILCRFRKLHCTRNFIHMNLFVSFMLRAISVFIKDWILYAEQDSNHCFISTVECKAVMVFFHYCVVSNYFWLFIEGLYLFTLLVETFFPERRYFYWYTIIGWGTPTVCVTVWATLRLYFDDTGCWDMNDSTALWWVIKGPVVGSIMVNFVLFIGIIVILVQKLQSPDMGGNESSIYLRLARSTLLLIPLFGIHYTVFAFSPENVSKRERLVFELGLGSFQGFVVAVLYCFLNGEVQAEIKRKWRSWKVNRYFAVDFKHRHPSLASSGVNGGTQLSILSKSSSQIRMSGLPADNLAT
sdiA: Regulatory protein SdiA (sdiA, Escherichia coli, UniProt P07026)
Sequence of UniProt P07026 (whole entry, looked up): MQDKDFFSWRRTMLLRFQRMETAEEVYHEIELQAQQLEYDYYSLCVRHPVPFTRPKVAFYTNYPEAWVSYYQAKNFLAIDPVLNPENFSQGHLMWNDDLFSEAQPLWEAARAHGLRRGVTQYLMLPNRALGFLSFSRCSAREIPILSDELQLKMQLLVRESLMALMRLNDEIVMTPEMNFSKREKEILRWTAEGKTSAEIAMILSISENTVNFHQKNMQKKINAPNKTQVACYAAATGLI
Sequence of UniProt Q9H7M9 (whole entry, looked up): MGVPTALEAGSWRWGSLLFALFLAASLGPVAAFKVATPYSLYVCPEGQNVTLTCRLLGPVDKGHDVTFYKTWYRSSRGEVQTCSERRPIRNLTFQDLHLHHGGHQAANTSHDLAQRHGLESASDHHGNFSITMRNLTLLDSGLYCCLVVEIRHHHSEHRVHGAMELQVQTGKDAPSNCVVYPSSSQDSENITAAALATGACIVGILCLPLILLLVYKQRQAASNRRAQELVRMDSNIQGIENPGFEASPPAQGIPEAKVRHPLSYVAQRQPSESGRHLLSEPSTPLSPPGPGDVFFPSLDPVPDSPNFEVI
Sequence of UniProt P50391 (whole entry, looked up): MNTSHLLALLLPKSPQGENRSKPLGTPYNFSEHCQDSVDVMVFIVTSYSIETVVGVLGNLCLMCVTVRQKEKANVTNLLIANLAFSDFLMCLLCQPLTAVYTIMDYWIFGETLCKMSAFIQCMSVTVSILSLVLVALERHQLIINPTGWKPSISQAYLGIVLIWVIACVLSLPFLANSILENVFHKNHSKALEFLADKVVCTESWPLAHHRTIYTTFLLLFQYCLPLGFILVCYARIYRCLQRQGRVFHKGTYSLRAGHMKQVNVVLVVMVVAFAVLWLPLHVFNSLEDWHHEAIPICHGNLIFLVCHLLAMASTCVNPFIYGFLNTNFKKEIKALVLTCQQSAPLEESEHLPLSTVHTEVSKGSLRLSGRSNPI
Sequence of UniProt Q585F3 (whole entry, looked up): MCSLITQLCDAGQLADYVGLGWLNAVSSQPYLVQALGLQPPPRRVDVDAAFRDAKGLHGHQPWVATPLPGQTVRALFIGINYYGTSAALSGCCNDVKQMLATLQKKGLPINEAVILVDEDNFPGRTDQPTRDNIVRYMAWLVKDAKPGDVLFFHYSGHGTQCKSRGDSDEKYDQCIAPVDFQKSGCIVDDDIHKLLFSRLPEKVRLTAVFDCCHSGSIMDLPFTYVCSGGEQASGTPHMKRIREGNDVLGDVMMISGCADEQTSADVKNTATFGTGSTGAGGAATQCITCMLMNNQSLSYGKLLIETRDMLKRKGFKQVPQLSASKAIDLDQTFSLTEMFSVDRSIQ
Sequence of UniProt P41595 (whole entry, looked up): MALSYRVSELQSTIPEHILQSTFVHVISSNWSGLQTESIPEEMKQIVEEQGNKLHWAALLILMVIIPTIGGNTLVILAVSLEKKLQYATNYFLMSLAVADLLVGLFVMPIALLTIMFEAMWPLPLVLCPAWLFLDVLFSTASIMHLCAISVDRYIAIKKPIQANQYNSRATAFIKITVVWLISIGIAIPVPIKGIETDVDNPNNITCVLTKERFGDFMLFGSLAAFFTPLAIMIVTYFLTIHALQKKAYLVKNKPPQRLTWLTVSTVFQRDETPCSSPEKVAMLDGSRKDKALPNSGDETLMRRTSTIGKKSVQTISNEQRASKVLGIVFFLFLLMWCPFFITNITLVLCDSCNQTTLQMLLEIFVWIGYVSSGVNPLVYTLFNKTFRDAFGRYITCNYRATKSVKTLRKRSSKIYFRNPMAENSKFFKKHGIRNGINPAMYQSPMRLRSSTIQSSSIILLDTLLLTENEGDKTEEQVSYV

With `O[C@H]1[C@H](n2cnc3c(N[C@@H](C4CCC4)C4CC4)nc(I)nc32)[C@H]2C[C@@]2(C(F)F)[C@H]1O` the Kb was 0.0033 µM (5-hydroxytryptamine receptor 2B (HTR2B, Homo sapiens, UniProt P41595); calcium signal, antagonist).
`CC(C)(C)C(=O)OCOP(=O)(OCOC(=O)C(C)(C)C)C1CCCN(O)C1=O` (stereo not shown) has a Log10GI50 of -6.33 log M (LOX IMVI).
`CC(C)C[C@H](NC(=O)[C@@H](NC(=O)CNC(=O)[C@H](Cc1ccccc1)NC(=O)[C@H](CCCCN)NC(=O)[C@H](Cc1ccc(O)cc1)NC(=O)[C@H](C)N)[C@@H](C)O)C(=O)N[C@@H](CCC(N)=O)C(=O)N1CCC[C@H]1C(=O)N[C@@H](Cc1ccccc1)C(=O)N[C@H](C(=O)N[C@@H](Cc1ccc(O)cc1)C(=O)O)[C@@H](C)O` — result for binding: “no binding” (V-type immunoglobulin domain-containing suppressor of T-cell activation, IgV domain (VSIR, Homo sapiens, UniProt Q9H7M9); microscale thermophoresis; concentration not given).
For `CSCC[C@H](NC(=O)[C@H](CCC(N)=O)NC(=O)[C@H](CCCCN)NC(=O)[C@H](CCCNC(=N)N)NC(=O)[C@H](Cc1ccc(O)cc1)NC(=O)[C@H](CCCNC(=N)N)NC(=O)[C@H](CO)NC(=O)[C@H](Cc1ccc(O)cc1)NC(=O)[C@H](CO)NC(=O)[C@H](CC(=O)O)NC(=O)[C@@H](NC(=O)[C@@H](N)Cc1ccccc1)[C@@H](C)O)C(=O)N[C@@H](C)C(=O)N[C@H](C(=O)N[C@@H](CCCCN)C(=O)N[C@@H](CCCCn1cc(C[C@H](NC(=O)CNC(=O)[C@H](CO)NC(=O)[C@H](CCCNC(=N)N)NC(=O)[C@H](CO)NC(=O)[C@H](CC(C)C)NC(=O)[C@H](CC(C)C)NC(=O)CNC(=O)[C@H](C)NC(=O)[C@H](CC(C)C)NC(=O)[C@H](CCCNC(=N)N)NC(=O)[C@H](Cc2c[nH]cn2)NC(=O)[C@@H](NC(=O)[C@@H](N)C(C)C)[C@@H](C)O)C(=O)N[C@H](C(=O)N[C@H](C(=O)N[C@@H](CCCCN)C(=O)N[C@@H](CC(N)=O)C(=O)N[C@@H](CC(N)=O)C(=O)N[C@@H](Cc2ccccc2)C(=O)N[C@H](C(=O)N2CCC[C@H]2C(=O)N[C@H](C(=O)N[C@@H](CC(N)=O)C(=O)N[C@H](C(=O)NCC(=O)N[C@@H](CO)C(=O)N[C@@H](CCCCN)C(=O)N[C@@H](C)C(=O)N[C@@H](Cc2ccccc2)C(N)=O)C(C)C)[C@@H](C)O)C(C)C)C(C)C)C(C)C)nn1)C(=O)N[C@@H](Cc1ccc(O)cc1)C(=O)N[C@@H](CC(C)C)C(=O)N[C@@H](C)C(=O)N[C@@H](C)C(=O)N[C@H](C(=O)N[C@@H](CC(C)C)C(=O)NCC(=O)N[C@@H](CCCCN)C(=O)N[C@@H](CCCNC(=N)N)C(=O)N[C@@H](Cc1ccc(O)cc1)C(=O)N[C@@H](CCCCN)C(=O)N[C@@H](CCC(N)=O)C(=O)N[C@@H](CCCNC(=N)N)C(=O)N[C@H](C(=O)N[C@@H](CCCCN)C(=O)N[C@@H](CC(N)=O)C(=O)N[C@@H](CCCCN)C(N)=O)C(C)C)C(C)C)C(C)C`, the Kb was over 10 µM (ADCYAP1R1; cAMP, antagonist).
For `COc1ccccc1-c1n[nH]c2nc(NC3CCN(C(=O)Cc4ccc(F)cc4F)CC3)ncc12`, the relative abundance was 1.1 (bead binding, competition bead pull-down, item: LINJ.05.0380; Leishmania donovani axenic amastigote extract; 10 µM; baseline: vehicle).
`C[C@H](NC(=O)[C@H](CCCCN)NC(=O)c1ccccc1N)C(=O)N[C@@H](CCCNC(=N)N)C(=O)N[C@@H](CO)C(=O)N[C@@H](Cc1ccccc1)C(=O)N[C@@H](C)C(=O)N[C@@H](CCC(N)=O)C(=O)NCCNc1ccc([N+](=O)[O-])cc1[N+](=O)[O-]` has a Ki of 9.6 µM (Metacaspase-2 (MCA2, Trypanosoma brucei brucei, UniProt Q585F3); enzyme activity, competitive inhibitor; Trypanosoma brucei; with: Z-FR-AMC substrate).
With `CSCC[C@H](NC(=O)[C@H](CCC(N)=O)NC(=O)[C@H](CCCCN)NC(=O)[C@H](CCCNC(=N)N)NC(=O)[C@H](Cc1ccc(O)cc1)NC(=O)[C@H](CCCNC(=N)N)NC(=O)[C@H](CO)NC(=O)[C@H](Cc1ccc(O)cc1)NC(=O)[C@H](CO)NC(=O)[C@H](CC(=O)O)NC(=O)[C@@H](NC(=O)[C@@H](N)Cc1ccccc1)[C@@H](C)O)C(=O)N[C@@H](C)C(=O)N[C@H](C(=O)N[C@@H](CCCCN)C(=O)N[C@@H](CCCCN)C(=O)N[C@@H](Cc1ccc(O)cc1)C(=O)N[C@@H](CC(C)C)C(=O)N[C@@H](C)C(=O)N[C@@H](C)C(=O)N[C@H](C(=O)N[C@@H](CC(C)C)C(=O)NCC(=O)N[C@@H](CCCCN)C(=O)N[C@@H](CCCNC(=N)N)C(=O)N[C@@H](Cc1ccc(O)cc1)C(=O)N[C@@H](CCCCN)C(=O)N[C@@H](CCC(N)=O)C(=O)N[C@@H](CCCCn1cc(C[C@H](NC(=O)CNC(=O)[C@H](CO)NC(=O)[C@H](CCCNC(=N)N)NC(=O)[C@H](CO)NC(=O)[C@H](CC(C)C)NC(=O)[C@H](CC(C)C)NC(=O)CNC(=O)[C@H](C)NC(=O)[C@H](CC(C)C)NC(=O)[C@H](CCCNC(=N)N)NC(=O)[C@H](Cc2c[nH]cn2)NC(=O)[C@@H](NC(=O)[C@@H](N)C(C)C)[C@@H](C)O)C(=O)N[C@H](C(=O)N[C@H](C(=O)N[C@@H](CCCCN)C(=O)N[C@@H](CC(N)=O)C(=O)N[C@@H](CC(N)=O)C(=O)N[C@@H](Cc2ccccc2)C(=O)N[C@H](C(=O)N2CCC[C@H]2C(=O)N[C@H](C(=O)N[C@@H](CC(N)=O)C(=O)N[C@H](C(=O)NCC(=O)N[C@@H](CO)C(=O)N[C@@H](CCCCN)C(=O)N[C@@H](C)C(=O)N[C@@H](Cc2ccccc2)C(N)=O)C(C)C)[C@@H](C)O)C(C)C)C(C)C)C(C)C)nn1)C(=O)N[C@H](C(=O)N[C@@H](CCCCN)C(=O)N[C@@H](CC(N)=O)C(=O)N[C@@H](CCCCN)C(N)=O)C(C)C)C(C)C)C(C)C` the Kb was over 10 µM (Pituitary adenylate cyclase-activating polypeptide type I receptor (ADCYAP1R1, Homo sapiens, UniProt P41586, del89-109); cAMP, antagonist).
For `Cc1cccc(CC(=O)N[C@H]2CCOC2=O)c1`, the EC50 was 0.00344 µM (sdiA).
For `CSCC[C@@H]1NC(=O)[C@H](Cc2ccccc2)NC(=O)[C@@H](NC(=O)[C@H](C)N)CSC(=O)[C@H](C(C)C)NC(=O)[C@@H](Cc2ccccc2)NC1=O`, the EC50 was 2.18 µM (Histidine kinase AgrC (Listeria monocytogenes, UniProt A8E0G3)).
For `CCCCCC(O)CC(=O)N[C@H]1CCOC1=O` (stereo partly shown), the EC50 was 0.00895 µM (sdiA).
For `O=C1NC2(CC2)COc2ncc(F)cc2[C@H]2COCCN2c2ccn3ncc1c3n2`, “organ-to-brain weight ratio” read 2.9 ± 0.32% (Sprague-Dawley rat, male, adrenals; oral, 5 mg/kg/day, 4 weeks, end of treatment).
`CSCC[C@H](NC(=O)[C@H](CCC(N)=O)NC(=O)[C@H](CCCCN)NC(=O)[C@H](CCCNC(=N)N)NC(=O)[C@H](Cc1ccc(O)cc1)NC(=O)[C@H](CCCNC(=N)N)NC(=O)[C@H](CO)NC(=O)[C@H](Cc1ccc(O)cc1)NC(=O)[C@H](CO)NC(=O)[C@H](CC(=O)O)NC(=O)[C@@H](NC(=O)[C@@H](N)Cc1ccccc1)[C@@H](C)O)C(=O)N[C@@H](C)C(=O)N[C@H](C(=O)N[C@@H](CCCCN)C(=O)N[C@@H](CCCCN)C(=O)N[C@@H](Cc1ccc(O)cc1)C(=O)N[C@@H](CC(C)C)C(=O)N[C@@H](C)C(=O)N[C@@H](C)C(=O)N[C@H](C(=O)N[C@@H](CC(C)C)C(=O)NCC(=O)N[C@@H](CCCCN)C(=O)N[C@@H](CCCNC(=N)N)C(=O)N[C@@H](Cc1ccc(O)cc1)C(=O)N[C@@H](CCCCN)C(=O)N[C@@H](CCC(N)=O)C(=O)N[C@@H](CCCNC(=N)N)C(=O)N[C@H](C(=O)N[C@@H](CCCCN)C(=O)N[C@@H](CC(N)=O)C(=O)N[C@@H](CCCCn1cc(C[C@H](NC(=O)CNC(=O)[C@H](CO)NC(=O)[C@H](CCCNC(=N)N)NC(=O)[C@H](CO)NC(=O)[C@H](CC(C)C)NC(=O)[C@H](CC(C)C)NC(=O)CNC(=O)[C@H](C)NC(=O)[C@H](CC(C)C)NC(=O)[C@H](CCCNC(=N)N)NC(=O)[C@H](Cc2c[nH]cn2)NC(=O)[C@@H](NC(=O)[C@@H](N)C(C)C)[C@@H](C)O)C(=O)N[C@H](C(=O)N[C@H](C(=O)N[C@@H](CCCCN)C(=O)N[C@@H](CC(N)=O)C(=O)N[C@@H](CC(N)=O)C(=O)N[C@@H](Cc2ccccc2)C(=O)N[C@H](C(=O)N2CCC[C@H]2C(=O)N[C@H](C(=O)N[C@@H](CC(N)=O)C(=O)N[C@H](C(=O)NCC(=O)N[C@@H](CO)C(=O)N[C@@H](CCCCN)C(=O)N[C@@H](C)C(=O)N[C@@H](Cc2ccccc2)C(N)=O)C(C)C)[C@@H](C)O)C(C)C)C(C)C)C(C)C)nn1)C(N)=O)C(C)C)C(C)C)C(C)C` has a Kb of 0.166 µM (ADCYAP1R1; cAMP accumulation, antagonist; with: PACAP-27).
`CC(=O)N[C@@H](CCCNC(=N)N)C(=O)N[C@@H](Cc1ccc(O)cc1)C(=O)N[C@@H](CCCNC(=N)N)C(=O)N[C@@H](CC(C)C)C(=O)N[C@@H](CCCNC(=N)NC(=O)NCCCCN)C(=O)N[C@@H](Cc1ccc(O)cc1)C(N)=O` has a Kb of 3.59 ± 0.429 µM (Neuropeptide Y receptor type 4 (NPY4R, Homo sapiens, UniProt P50391); β-arrestin-1 recruitment, antagonist; HEK293T-ARRB1; with: 3 nM human pancreatic polypeptide).

Some of these lines once more:
`CC(C)(C)C(=O)OCOP(=O)(OCOC(=O)C(C)(C)C)C1CCCN(O)C1=O` (stereo not shown) has a Log10GI50 of -6.33 log M (LOX IMVI).
`CC(C)C[C@H](NC(=O)[C@@H](NC(=O)CNC(=O)[C@H](Cc1ccccc1)NC(=O)[C@H](CCCCN)NC(=O)[C@H](Cc1ccc(O)cc1)NC(=O)[C@H](C)N)[C@@H](C)O)C(=O)N[C@@H](CCC(N)=O)C(=O)N1CCC[C@H]1C(=O)N[C@@H](Cc1ccccc1)C(=O)N[C@H](C(=O)N[C@@H](Cc1ccc(O)cc1)C(=O)O)[C@@H](C)O` — result for binding: “no binding” (V-type immunoglobulin domain-containing suppressor of T-cell activation, IgV domain (VSIR, Homo sapiens, UniProt Q9H7M9); microscale thermophoresis; concentration not given).
